Results pooled from the literature.
Compare with care: the assays were run in different laboratories. “And” joins repeats or separate records; there may be more than shown.
Cell line: LOX IMVI

| SMILES | effect on | method | concentration | time | setting | endpoint | value |
| --- | --- | --- | --- | --- | --- | --- | --- |
| Cc1n[nH]c2nc(-c3ccc(Cl)cc3)c3c(NC(=O)c4ccccc4)nnc-3n12 |  | NCI60 SRB | 10 µM |  |  | growth percent | 118% |
| CCCN1CCN(c2ccc3[nH]c(-c4ccc5[nH]c(-c6ccc(OCC)c(OCC)c6)nc5c4)nc3c2)CC1 | cell growth | NCI-60 SRB | 10 µM | 48 h |  | growth percent | -84.3% |
| CCOC(=O)CSc1nc(-c2ccc(Cl)cc2)c2c(NC(=O)c3ccccc3)nnc-2[nH]1 |  | NCI60 SRB | 10 µM |  |  | growth percent | 86.9% |
| Cn1cncc1C1=CN(c2ncnc3[nH]cnc23)CCS1 |  |  |  |  | melanoma cell line | GI50 | 24.5 µM |
| CSc1nc(-c2ccc(Cl)cc2)c2c(NC(=O)c3ccccc3)nnc-2[nH]1 |  | NCI60 SRB | 10 µM |  |  | growth percent | 105% |
| CCCN1CCN(c2ccc3[nH]c(-c4ccc5[nH]c(-c6cc(OC)c(OC)c(OC)c6)nc5c4)nc3c2)CC1 | cell growth | NCI-60 SRB | 10 µM | 48 h |  | growth percent | 67.3% |
| Cc1cc(=O)[nH]c(=O)n1Cc1cn(-c2cc3ccccc3oc2=O)nn1 |  | NCI60 single dose | 10 µM |  |  | growth | 95.7% |
| O=C(Nc1nnc2[nH]c(=S)[nH]c(-c3ccc(Cl)cc3)c1-2)c1ccccc1 |  | NCI60 SRB | 10 µM |  |  | growth percent | 104% |
| CCN(CC)c1ccc(C=NNC(=O)CSc2nc3ccccc3c(=O)n2Cc2ccc(S(N)(=O)=O)cc2)c(O)c1 | cell growth |  |  |  | NCI five-dose screen | TGI | 10.5 µM |
| Cc1cc(=O)[nH]n1-c1nc(-c2ccc(Cl)cc2)c2c(NC(=O)c3ccccc3)nnc-2[nH]1 |  | NCI60 SRB | 10 µM |  |  | growth percent | 86.8% |
| C#C[C@@]1(O)[C@@H](CO)O[C@@H](n2cc(F)c3c(N)ncnc32)[C@@H]1O | cell growth | SRB |  |  |  | TGI | 1.11 µM |
| O=c1ccn(Cc2cn(-c3cc4ccccc4oc3=O)nn2)c(=O)[nH]1 |  | NCI60 single dose | 10 µM |  |  | growth | 97.6% |
| O=C(/C=C/C=C/C=C/C1CCCCC1)NC1=C[C@@](O)(/C=C/C=C/C=C/C(=O)NC2=C(O)CCC2=O)[C@@H]2O[C@@H]2C1=O |  | CellTiter-Glo |  | 78 h |  | GI50 | 11.6 µM |
| CCCCN1CCN(c2ccc3[nH]c(-c4ccc5[nH]c(-c6cc(OC)c(OC)c(OC)c6)nc5c4)nc3c2)CC1 | cell growth | NCI-60 SRB | 10 µM | 48 h |  | growth percent | 40.7% |
| CCn1cc(-c2cc(Cn3ccnc3)cc3c2CCN([C@H](c2cc(OC)ccn2)C2CC2)C3=O)c(C(F)(F)F)n1 | cell growth |  |  | 120 h |  | EC50 | > 30 µM |
| CCCCN1CCN(c2ccc3[nH]c(-c4ccc5[nH]c(-c6ccc(OCC)c(OCC)c6)nc5c4)nc3c2)CC1 | cell growth | NCI-60 SRB | 10 µM | 48 h |  | growth percent | -82% |
| O=C1NC(c2ccccc2)(c2ccccc2)C(=O)N1Cc1cn(-c2c3ccccc3nc3ccccc23)nn1 |  | NCI60 single dose | 10 µM |  |  | growth | 78.2% |
| CN1CCN(c2ccc3[nH]c(-c4ccc5[nH]c(-c6ccc(C(F)(F)F)cc6)nc5c4)nc3c2)CC1 | cell growth | NCI-60 SRB | 10 µM | 48 h |  | growth percent | -85.8% |
| S=C([S][Au-][P+](CCCCCC[P+]([Au-][S]C(=S)n1cccn1)(c1ccccc1)c1ccccc1)(c1ccccc1)c1ccccc1)n1cccn1 | cell growth | NCI-60 screen |  |  | melanoma | log10 TGI | > -4 |
| C#C[C@@]1(O)[C@@H](CO)O[C@@H](n2cc(Br)c3c(N)ncnc32)[C@@H]1O | cell growth | SRB |  |  |  | TGI | 0.351 µM and 0.176 µM |
| CCCN1CCN(c2ccc3[nH]c(-c4ccc5[nH]c(-c6ccc(C(F)(F)F)cc6)nc5c4)nc3c2)CC1 | cell growth | NCI-60 SRB | 10 µM | 48 h |  | growth percent | -92.9% |

For quick reference, copied from above:
| SMILES | effect on | method | concentration | time | setting | endpoint | value |
| --- | --- | --- | --- | --- | --- | --- | --- |
| Cc1cc(=O)[nH]n1-c1nc(-c2ccc(Cl)cc2)c2c(NC(=O)c3ccccc3)nnc-2[nH]1 |  | NCI60 SRB | 10 µM |  |  | growth percent | 86.8% |
